{"data": "Assay results collected from several papers", "organism": "influenza A virus", "note": "Lines come from different studies, so protocols differ. Numbers after ± are the reported error."}
{"SMILES": "CCC1(O)C([N+](=O)[O-])=NNc2nc(C(F)(F)F)nn21 (stereo not drawn)", "test system": "MDCK, A/Puerto Rico/8/34 (H1N1)", "scale": "relative to: CC50 over IC50", "quantity": "selectivity index", "value": 1}
{"SMILES": "COc1cc(-c2oc3cc(O)cc(O)c3c(=O)c2O[C@@H]2O[C@H](CO)[C@@H](O)[C@H](OC(C)=O)[C@H]2O)ccc1O", "test": "hemagglutination", "test system": "virus panel", "setting": "range over panel", "quantity": "IC50", "value": "40.8 to 157 µM"}
{"SMILES": "CCOC(=O)c1nc2n(n1)C(C)(O)C([N+](=O)[O-])=NN2 (stereo not drawn)", "test system": "MDCK, A/Puerto Rico/8/34 (H1N1)", "scale": "relative to: CC50 over IC50", "quantity": "selectivity index", "value": 1}
{"SMILES": "COc1cc(-c2oc3cc(O)cc(O)c3c(=O)c2O[C@@H]2O[C@H](CO)[C@@H](O)[C@H](O)[C@H]2OC(=O)c2cc(O)c(O)c(O)c2)ccc1O", "test": "hemagglutination", "test system": "A/Vladivostok/2/09 (H1N1)", "quantity": "IC50", "value": "185 ± 5.5 µM"}
{"SMILES": "CCOC(=O)c1cnn2c1NN=C([N+](=O)[O-])C2(O)CC (stereo not drawn)", "test system": "MDCK, A/Puerto Rico/8/34 (H1N1)", "scale": "relative to: CC50 over IC50", "quantity": "selectivity index", "value": 3}
{"SMILES": "c1nc(N2CCCCCC2)ncc1CNC12CC3CC(CC(C3)C1)C2", "test": "cytopathic effect", "test system": "MDCK, A/WSN/33 H1N1", "setting": "48 h", "quantity": "EC50", "value": "0.7 ± 0.1 µM"}
{"SMILES": "Cc1cn(C2CC(N(C)C)C(CO)O2)c(=O)[nH]c1=O (stereo not drawn)", "test": "viral cytopathic effect", "test system": "MDCK, H1N1", "quantity": "EC50", "value": "> 0.37 µM"}
{"SMILES": "c1nc(N2CCCCC2)ncc1CNC12CC3CC(CC(C3)C1)C2", "test": "cytopathic effect", "test system": "MDCK, A/WSN/33 H1N1", "setting": "48 h", "quantity": "EC50", "value": "1.5 ± 0.6 µM"}
{"SMILES": "Cc1cc(-c2ccccc2)nc2nc(-c3nc4sc5c(c4c(=O)o3)CCCCC5)nn12", "test": "plaque formation, plaque reduction", "test system": "MDCK, A/PR/8/34", "quantity": "EC50", "value": "40 ± 6 µM"}
{"SMILES": "CCOC(=O)c1cnn2c1NN=C([N+](=O)[O-])C2(C)O (stereo not drawn)", "test system": "MDCK, A/Puerto Rico/8/34 (H1N1)", "scale": "relative to: CC50 over IC50", "quantity": "selectivity index", "value": 2}
{"SMILES": "Cc1cc(-c2ccccc2)nc2nc(C(=O)Nc3sc4c(c3C(N)=O)CCCCC4)nn12", "test": "plaque formation, plaque reduction", "test system": "MDCK, A/PR/8/34", "quantity": "EC50", "value": "8 ± 2 µM"}
{"SMILES": "O=C1/C(=N\\NC(=S)NN=Cc2cccs2)c2ccccc2N1Cc1ccccc1", "test": "cytopathic effect, MTS", "test system": "MDCK, H1N1", "quantity": "EC50", "value": "> 4 µM"}
{"SMILES": "COc1cc(-c2oc3cc(O[C@@H]4O[C@@H](C)[C@H](O)[C@@H](O)[C@H]4O)cc(O)c3c(=O)c2O[C@@H]2O[C@H](CO[C@@H]3O[C@@H](C)[C@H](O)[C@@H](O)[C@H]3O)[C@@H](O)[C@H](OC(C)=O)[C@H]2O)ccc1O", "test": "hemagglutination", "test system": "virus panel", "setting": "range over panel", "quantity": "IC50", "value": "27.3 to 152 µM"}
{"SMILES": "CCCCCCCCCC(=O)OCC1OC(n2cc(C)c(=O)[nH]c2=O)CC1N(C)C (stereo not drawn)", "test": "viral cytopathic effect", "test system": "MDCK, H1N1", "quantity": "EC50", "value": "> 0.23 µM"}
{"SMILES": "OC12CC3CC(C1)CC(NCc1cnc(N4CCCCC4)nc1)(C3)C2", "test": "plaque reduction", "test system": "MDCK ST6Gal I, A/WSN/33 (H1N1)", "setting": "2 days", "quantity": "EC50", "value": "4.5 ± 1.9 µM"}
